Results from different studies.
Protocols differ between the studies behind these lines. Numbers after ± are the reported error.
Sequence of UniProt P08684 (whole entry, unmodified, looked up): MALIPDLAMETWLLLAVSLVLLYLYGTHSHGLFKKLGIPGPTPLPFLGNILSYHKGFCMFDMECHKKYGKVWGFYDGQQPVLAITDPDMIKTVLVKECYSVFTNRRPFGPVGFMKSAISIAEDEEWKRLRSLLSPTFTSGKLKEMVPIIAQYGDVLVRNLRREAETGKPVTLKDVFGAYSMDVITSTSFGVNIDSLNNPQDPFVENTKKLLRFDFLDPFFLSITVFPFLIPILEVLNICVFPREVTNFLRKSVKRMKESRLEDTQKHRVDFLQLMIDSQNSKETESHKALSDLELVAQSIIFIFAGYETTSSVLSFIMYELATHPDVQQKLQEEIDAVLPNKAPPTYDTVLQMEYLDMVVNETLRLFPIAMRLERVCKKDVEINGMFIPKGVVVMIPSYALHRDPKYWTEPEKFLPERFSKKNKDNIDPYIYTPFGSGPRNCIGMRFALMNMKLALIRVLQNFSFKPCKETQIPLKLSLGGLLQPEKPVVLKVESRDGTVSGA

With `O=c1c2cc([N+](=O)[O-])ccc2n(CCBr)n1Cc1ccccc1` the selectivity index was 3 (Leishmania amazonensis; promastigotes, MHOM/BR/77/LTB0016; baseline: CC50 macrophages over IC50 promastigotes).
With `[64Cu+2].c1cnc(CNCc2ccc(CN3CCCN4CCNCCCN(CC4)CC3)cc2)nc1` the tissue uptake was 0.3 ± 0.02 %ID/g (CXCR4; NOD/SCID mouse, U87 and U87-stb-CXCR4 xenografts, muscle; iv, 240 min, ex vivo).
Under “share of subjects with TEAE”, `Cn1c(=O)oc2ccc(-c3ccc(CC(C#N)NC(=O)C4CNCCCO4)c(F)c3)cc21` (stereo not shown) is recorded as 0% (refers to: white blood cells in urine; human volunteers; 40 mg single dose, fasted).
`COc1ccc(CNc2nc(N3CCC[C@H]3CO)ncc2C(=O)NNC(=O)c2cnc(N3CCC[C@H]3CO)nc2NCc2ccc(OC)c(Cl)c2)cc1Cl`: toxicity “toxic” (Salmonella typhimurium; Ames test; TA98, TA100, TA1535, TA102, TA97a; 5000, 2500, 1600 µg/plate, preliminary test).
`O=C(CCC(=O)OCCNC(=O)[C@@H](Cc1ccccc1)NC(=O)[C@@H](Cc1ccccc1)NC(=O)CCNc1ccc([N+](=O)[O-])c2nonc12)NCCS(=O)(=O)O` has a conversion of over 50% (porcine liver esterase; substrate; PBS; 100 µM, 24 h, with: esterase 1 U/mL).
For `COC(=O)CN1CCN(CC(=O)OC)CCN(Cc2cc(-c3nc4ccccc4s3)cc(OC)c2O)CC1`, the pCu was 10.3 (copper(II) ion; metal chelation, spectrophotometric titration; aqueous solution; 50 µM, pH 7.4, with: Cu(II) 50 µM; higher = stronger binding).
The selectivity index of `NC(=O)CCCn1c2ccc([N+](=O)[O-])cc2c(=O)n1Cc1ccccc1` is reported as 10 (Leishmania amazonensis; promastigotes, MHOM/BR/77/LTB0016; baseline: CC50 macrophages over IC50 promastigotes).
`COc1ccc2cc(NC(=O)c3cc(-c4cccnc4)nc4ccccc34)ccc2c1` — result for “koff slow phase”: 0.0053 s⁻¹ (Cytochrome P450 3A4 (CYP3A4, Homo sapiens, UniProt P08684, S18F); binding, surface plasmon resonance; 10 °C).
`CN(C)CCn1c2ccc([N+](=O)[O-])cc2c(=O)n1Cc1ccccc1` has a selectivity index of 5 (Leishmania amazonensis; promastigotes, MHOM/BR/77/LTB0016; baseline: CC50 macrophages over IC50 promastigotes).
`[64Cu+2].c1ccc(CNCc2ccc(CN3CCCN4CCNCCCN(CC4)CC3)cc2)nc1` gave a tissue uptake of 2.38 ± 0.51 %ID/g (CXCR4; NOD/SCID mouse, U87 and U87-stb-CXCR4 xenografts, stomach; iv, 30 min, ex vivo).
`CCCCn1c2ccc([N+](=O)[O-])cc2c(=O)n1Cc1ccccc1` has a selectivity index of 9 (Leishmania amazonensis; promastigotes, MHOM/BR/77/LTB0016; baseline: CC50 macrophages over IC50 promastigotes).
`[99Tc+].[C-]#[N+]CC(C)(C)OC.[C-]#[N+]CC(C)(C)OC.[C-]#[N+]CC(C)(C)OC.[C-]#[N+]CC(C)(C)OC.[C-]#[N+]CC(C)(C)OC.[C-]#[N+]CC(C)(C)OC` — result for “canalicular efflux fraction”: 36.8% (rat sandwich-cultured hepatocytes; baseline: total efflux).
With `O=C(CCCCC[N+]#[C][99Tc-5]([C]#[N+]CCCCCC(=O)N[C@H]1C(O)O[C@H](CO)[C@@H](O)[C@@H]1O)([C]#[N+]CCCCCC(=O)N[C@H]1C(O)O[C@H](CO)[C@@H](O)[C@@H]1O)([C]#[N+]CCCCCC(=O)N[C@H]1C(O)O[C@H](CO)[C@@H](O)[C@@H]1O)([C]#[N+]CCCCCC(=O)N[C@H]1C(O)O[C@H](CO)[C@@H](O)[C@@H]1O)[C]#[N+]CCCCCC(=O)N[C@H]1C(O)O[C@H](CO)[C@@H](O)[C@@H]1O)N[C@H]1C(O)O[C@H](CO)[C@@H](O)[C@@H]1O` (stereo partly shown) the tracer uptake was 0.42 %ID/g (U-87 MG tumour model; host not given, tumour; 2 h, tumour-bearing).
For `CC(=O)N[C@H](C(=O)N[C@H](C(=O)N[C@@H](CCCNC(=N)N)C(=O)N1Cc2ccccc2C[C@H]1C(=O)N[C@@H](Cc1ccccc1)C(N)=O)C1CCCCC1)C(C)C`, the cytokine level was 13500 ± 14200 pg/mL (human PBMC; Bio-Plex multiplex, refers to: IL-8; 500 µg/mL, 24 h).
For `O=c1c2cc([N+](=O)[O-])ccc2n(CCN2CCCCC2)n1Cc1ccccc1`, the selectivity index was 0.5 (Leishmania amazonensis; promastigotes, MHOM/BR/77/LTB0016; baseline: CC50 macrophages over IC50 promastigotes).
`CCN(CC)c1ccc2c(-c3ccc(S(=O)(=O)NCCNC(=O)CN4CCN(CC(=O)[O-])CCN(CC(=O)O)CCN(CC(=O)[O-])CC4)cc3S(=O)(=O)[O-])c3ccc(=[N+](CC)CC)cc-3oc2c1.[64Cu+2]` gave a tracer uptake of 7.7 %ID/g (U-87 MG tumour model; host not given, liver; 4 h, tumour-bearing).
